Measured values from different studies.
Each line is one published result; not all experiments were run side by side. ± gives the spread as reported.
DCLK1: Serine/threonine-protein kinase DCLK1 (DCLK1, Homo sapiens, UniProt O15075)
Chain of UniProt O15075 (whole entry, looked up): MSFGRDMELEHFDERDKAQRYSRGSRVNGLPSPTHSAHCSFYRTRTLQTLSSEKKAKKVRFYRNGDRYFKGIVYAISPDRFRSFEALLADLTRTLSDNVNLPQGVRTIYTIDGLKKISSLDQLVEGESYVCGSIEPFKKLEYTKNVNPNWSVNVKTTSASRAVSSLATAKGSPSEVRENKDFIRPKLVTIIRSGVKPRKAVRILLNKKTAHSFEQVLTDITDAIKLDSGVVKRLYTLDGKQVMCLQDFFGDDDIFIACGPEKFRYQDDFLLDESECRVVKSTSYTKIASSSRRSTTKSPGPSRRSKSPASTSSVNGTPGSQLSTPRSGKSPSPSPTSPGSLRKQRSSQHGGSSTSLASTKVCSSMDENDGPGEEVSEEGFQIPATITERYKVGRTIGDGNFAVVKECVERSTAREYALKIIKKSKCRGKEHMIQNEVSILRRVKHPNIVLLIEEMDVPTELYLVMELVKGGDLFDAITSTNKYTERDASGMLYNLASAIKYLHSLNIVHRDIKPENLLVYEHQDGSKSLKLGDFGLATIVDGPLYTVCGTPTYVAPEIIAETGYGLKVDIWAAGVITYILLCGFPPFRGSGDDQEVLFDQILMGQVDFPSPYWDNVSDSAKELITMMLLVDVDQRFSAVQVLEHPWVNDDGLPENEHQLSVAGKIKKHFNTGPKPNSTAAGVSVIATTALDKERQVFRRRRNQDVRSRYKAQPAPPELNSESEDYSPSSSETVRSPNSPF
MAP4K1: Mitogen-activated protein kinase kinase kinase kinase 1 (MAP4K1, Homo sapiens, UniProt Q92918)
Chain of UniProt Q92918 (whole entry, looked up): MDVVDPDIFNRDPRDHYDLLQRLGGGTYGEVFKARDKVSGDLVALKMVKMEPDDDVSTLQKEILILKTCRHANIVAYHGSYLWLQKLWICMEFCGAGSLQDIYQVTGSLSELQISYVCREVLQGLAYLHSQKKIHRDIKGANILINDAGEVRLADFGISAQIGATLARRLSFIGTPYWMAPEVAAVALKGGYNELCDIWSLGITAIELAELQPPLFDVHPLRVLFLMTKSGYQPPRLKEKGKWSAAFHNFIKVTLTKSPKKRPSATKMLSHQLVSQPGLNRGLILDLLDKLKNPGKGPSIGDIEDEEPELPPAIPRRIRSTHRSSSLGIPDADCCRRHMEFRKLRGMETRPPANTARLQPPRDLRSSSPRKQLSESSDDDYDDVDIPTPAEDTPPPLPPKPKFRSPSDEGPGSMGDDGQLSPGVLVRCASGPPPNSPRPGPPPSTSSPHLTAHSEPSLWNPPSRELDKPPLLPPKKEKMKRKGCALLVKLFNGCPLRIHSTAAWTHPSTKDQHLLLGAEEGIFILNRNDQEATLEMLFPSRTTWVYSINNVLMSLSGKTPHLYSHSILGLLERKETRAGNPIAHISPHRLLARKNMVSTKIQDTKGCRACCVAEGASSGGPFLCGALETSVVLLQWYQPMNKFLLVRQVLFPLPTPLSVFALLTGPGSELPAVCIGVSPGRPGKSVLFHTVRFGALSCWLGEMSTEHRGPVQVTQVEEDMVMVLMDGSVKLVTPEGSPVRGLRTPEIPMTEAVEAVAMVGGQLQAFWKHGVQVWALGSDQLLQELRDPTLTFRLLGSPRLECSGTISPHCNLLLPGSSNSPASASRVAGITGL
FGFR4: Fibroblast growth factor receptor 4 (FGFR4, Homo sapiens, UniProt P22455)
Chain of UniProt P22455 (whole entry, looked up): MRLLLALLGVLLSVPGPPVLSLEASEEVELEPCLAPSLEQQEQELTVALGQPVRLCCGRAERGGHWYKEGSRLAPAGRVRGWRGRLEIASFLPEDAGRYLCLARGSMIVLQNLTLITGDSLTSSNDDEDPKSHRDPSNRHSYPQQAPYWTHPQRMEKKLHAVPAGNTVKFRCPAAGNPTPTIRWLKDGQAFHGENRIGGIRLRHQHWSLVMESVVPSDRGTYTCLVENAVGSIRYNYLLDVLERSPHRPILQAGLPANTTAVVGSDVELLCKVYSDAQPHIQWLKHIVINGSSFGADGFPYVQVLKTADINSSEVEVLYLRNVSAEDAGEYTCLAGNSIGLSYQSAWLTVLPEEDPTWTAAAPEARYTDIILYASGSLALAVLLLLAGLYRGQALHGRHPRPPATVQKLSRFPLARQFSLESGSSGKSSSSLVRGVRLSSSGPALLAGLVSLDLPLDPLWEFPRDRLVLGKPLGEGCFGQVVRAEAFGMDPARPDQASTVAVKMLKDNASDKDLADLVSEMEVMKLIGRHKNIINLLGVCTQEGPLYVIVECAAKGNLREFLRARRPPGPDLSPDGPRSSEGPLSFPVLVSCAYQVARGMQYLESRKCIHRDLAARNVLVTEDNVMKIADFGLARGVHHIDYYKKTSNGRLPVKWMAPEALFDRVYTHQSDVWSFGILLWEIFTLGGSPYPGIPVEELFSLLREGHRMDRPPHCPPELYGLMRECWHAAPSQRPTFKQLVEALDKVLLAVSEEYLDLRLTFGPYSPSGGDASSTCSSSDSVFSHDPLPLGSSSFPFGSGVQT
MPO: Myeloperoxidase (MPO, Homo sapiens, UniProt P05164)
Chain of UniProt P05164 (whole entry, looked up): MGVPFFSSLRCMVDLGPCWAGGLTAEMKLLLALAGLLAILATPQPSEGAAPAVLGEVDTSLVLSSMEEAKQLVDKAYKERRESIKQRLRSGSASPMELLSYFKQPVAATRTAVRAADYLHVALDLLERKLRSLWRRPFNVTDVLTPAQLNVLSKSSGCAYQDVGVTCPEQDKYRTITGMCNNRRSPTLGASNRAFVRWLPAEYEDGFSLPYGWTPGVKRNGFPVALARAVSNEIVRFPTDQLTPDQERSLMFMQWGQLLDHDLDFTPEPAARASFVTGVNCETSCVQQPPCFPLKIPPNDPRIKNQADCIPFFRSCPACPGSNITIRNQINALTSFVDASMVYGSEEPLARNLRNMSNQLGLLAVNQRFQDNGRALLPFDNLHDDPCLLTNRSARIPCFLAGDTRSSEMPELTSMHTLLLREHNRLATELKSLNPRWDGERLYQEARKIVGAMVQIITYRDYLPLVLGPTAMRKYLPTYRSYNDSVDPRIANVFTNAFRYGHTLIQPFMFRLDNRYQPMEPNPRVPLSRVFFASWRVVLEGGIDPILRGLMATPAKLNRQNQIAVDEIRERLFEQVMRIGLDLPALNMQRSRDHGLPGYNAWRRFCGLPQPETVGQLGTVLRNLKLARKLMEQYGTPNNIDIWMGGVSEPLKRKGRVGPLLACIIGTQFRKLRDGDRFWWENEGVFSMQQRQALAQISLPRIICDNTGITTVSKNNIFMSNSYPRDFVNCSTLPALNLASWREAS
rhlR: HTH-type quorum-sensing regulator RhlR (rhlR, Pseudomonas aeruginosa, UniProt P54292)
Chain of UniProt P54292 (whole entry, looked up): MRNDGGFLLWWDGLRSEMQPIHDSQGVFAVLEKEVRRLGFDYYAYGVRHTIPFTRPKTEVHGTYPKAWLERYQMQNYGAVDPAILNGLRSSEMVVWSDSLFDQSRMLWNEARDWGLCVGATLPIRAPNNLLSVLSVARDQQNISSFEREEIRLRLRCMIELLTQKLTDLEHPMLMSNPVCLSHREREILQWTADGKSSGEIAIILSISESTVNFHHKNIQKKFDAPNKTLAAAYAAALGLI
Astl: Astacin-like metalloendopeptidase (Astl, Mus musculus, UniProt Q6HA09)
Chain of UniProt Q6HA09 (whole entry, looked up): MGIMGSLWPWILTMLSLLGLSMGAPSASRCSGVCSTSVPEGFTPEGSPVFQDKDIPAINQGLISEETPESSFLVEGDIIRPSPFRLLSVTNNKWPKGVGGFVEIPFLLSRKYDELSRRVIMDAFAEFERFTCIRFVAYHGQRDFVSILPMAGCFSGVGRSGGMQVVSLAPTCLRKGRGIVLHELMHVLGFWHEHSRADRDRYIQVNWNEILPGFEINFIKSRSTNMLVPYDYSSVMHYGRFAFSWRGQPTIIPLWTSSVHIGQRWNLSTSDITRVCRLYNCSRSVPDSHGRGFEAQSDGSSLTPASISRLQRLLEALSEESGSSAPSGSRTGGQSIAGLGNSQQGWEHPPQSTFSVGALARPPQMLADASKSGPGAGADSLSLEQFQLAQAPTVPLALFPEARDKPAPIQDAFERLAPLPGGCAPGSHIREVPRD
NUAK2: NUAK family SNF1-like kinase 2 (NUAK2, Homo sapiens, UniProt Q9H093)
Chain of UniProt Q9H093 (whole entry, looked up): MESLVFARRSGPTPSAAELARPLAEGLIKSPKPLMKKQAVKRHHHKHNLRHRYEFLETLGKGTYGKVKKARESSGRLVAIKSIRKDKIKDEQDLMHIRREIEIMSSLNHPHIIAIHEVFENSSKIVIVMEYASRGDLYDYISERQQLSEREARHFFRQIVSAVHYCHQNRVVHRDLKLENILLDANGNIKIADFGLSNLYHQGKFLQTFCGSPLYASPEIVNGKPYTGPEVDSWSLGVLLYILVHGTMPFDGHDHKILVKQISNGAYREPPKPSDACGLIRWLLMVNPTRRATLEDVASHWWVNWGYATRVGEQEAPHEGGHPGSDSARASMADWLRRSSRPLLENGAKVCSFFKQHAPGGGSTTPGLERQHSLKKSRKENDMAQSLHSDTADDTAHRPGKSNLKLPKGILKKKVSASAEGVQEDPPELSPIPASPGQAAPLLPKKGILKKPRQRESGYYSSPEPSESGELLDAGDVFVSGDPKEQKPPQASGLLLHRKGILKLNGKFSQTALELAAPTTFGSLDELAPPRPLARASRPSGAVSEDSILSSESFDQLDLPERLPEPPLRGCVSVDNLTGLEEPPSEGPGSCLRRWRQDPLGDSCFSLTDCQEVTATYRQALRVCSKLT
Chain of UniProt P45983 (whole entry, looked up): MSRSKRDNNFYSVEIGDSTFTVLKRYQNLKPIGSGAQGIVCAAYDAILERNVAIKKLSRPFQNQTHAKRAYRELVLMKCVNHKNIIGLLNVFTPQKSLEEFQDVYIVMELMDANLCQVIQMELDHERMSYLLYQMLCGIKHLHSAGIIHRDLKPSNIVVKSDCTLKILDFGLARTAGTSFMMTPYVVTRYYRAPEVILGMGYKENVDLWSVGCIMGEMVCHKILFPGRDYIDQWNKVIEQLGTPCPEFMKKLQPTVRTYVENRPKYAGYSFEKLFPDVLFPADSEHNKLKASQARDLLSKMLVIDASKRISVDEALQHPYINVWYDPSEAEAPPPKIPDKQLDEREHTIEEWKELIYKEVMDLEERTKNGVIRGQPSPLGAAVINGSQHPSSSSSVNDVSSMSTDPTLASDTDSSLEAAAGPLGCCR

For `COc1cc(N2CCN(C)CC2)ccc1Nc1nc(N)n(C(=S)NCc2c(Cl)cccc2Cl)n1`, the remaining activity was 0.1% (DCLK1; enzyme activity; 10 µM; reference: control).
`O=C(O)c1ccc(Nc2ncc3c(n2)-c2ccc(Cl)cc2C(c2c(F)cccc2F)=NC3)cc1` gave a remaining activity of 99% (PKCζ(h); kinase activity; 1 µM).
With `CC#CC(=O)N1CCC[C@H]1c1nc(-c2ccc(C(=O)Nc3ccccn3)cc2)c2c(N)nccn12` the remaining activity was 95.7 ± 2% (MAP4K1; kinase activity, inhibitor, HotSpot radiometric; 100 nM, added: ATP 10 µM).
The remaining activity of `c1cnc2ccc(Nc3nc(NC4CC4)c4nc[nH]c4n3)cc2c1` is reported as 87% (FGFR4; kinase activity, inhibitor, SelectScreen kinase profiling; 1 µM; reference: control).
With `NC/C(=C\F)COc1cccc(Cn2c(=S)[nH]c(=O)c3[nH]cnc32)c1` the remaining activity was 7.12% (MPO; LDL lipid peroxidation, inhibitor, cholesteryl ester hydroperoxide; 0.5 µM).
For `COc1cc(-c2cncc3c2CN(C)Cc2cc(N4CCNCC4)ccc2-3)cc(OC)c1OC`, the remaining activity was 138% (PDK2 (Homo sapiens, UniProt Q15119); kinase activity; 1 µM, human enzyme, added: ATP 10 µM; reference: DMSO control).
For `COc1cc(C#CC(=O)C2CCCCC2)ccc1O`, the remaining activity was 74% (rhlR; reporter gene, inhibitor, quorum sensing reporter strain; 10 µM, 1.5 h; reference: DMSO).
The remaining activity of `Cc1cc(NC(=O)c2cccc(NC(=O)/C=C/CN(C)C)c2)ccc1Nc1nccc(-c2cccnc2)n1` is reported as 0.068 (MAPK8 (Homo sapiens, UniProt P45983); enzyme activity, inhibitor; 4.938 µM, 0 h, unit not given, added: GSH 10 mM pre-incubation; reference: vehicle).
`O=C(CCN(Cc1ccc(Cl)cc1F)Cc1ccc(Cl)c(O)c1F)NO` gave a remaining activity of 7 ± 1% (Astl; enzyme activity, inhibitor, fluorogenic; 5 µM).
`COc1cc(F)ccc1-c1ncnc(Nc2cccc(C[S@](C)(=N)=O)c2)n1` gave a remaining activity of 91% (SGK2 (Homo sapiens, UniProt Q9HBY8); kinase activity; 10 µM, added: 10 µM ATP).
The remaining activity of `CNc1ncc2c(/C=C/C(=O)N3CCC(OC)CC3)nn(Cc3cccc(C(F)(F)F)c3)c2n1` is reported as 105% (NUAK2; kinase activity, inhibitor; 1 µM; reference: untreated control).
`Cc1ccc(C(=O)C#Cc2ccc(F)c(F)c2)cc1` gave a remaining activity of 69% (rhlR; reporter gene, inhibitor, quorum sensing reporter strain; 10 µM, 1.5 h; reference: DMSO).
`COc1cc(Nc2ncc3c(n2)-c2ccc(Cl)cc2C(c2c(F)cccc2OC)=NC3)ccc1C(=O)O` gave a remaining activity of 99% (PRKCE; kinase activity; 1 µM).
The remaining activity of `COc1cc(C#CC(=O)c2ccc(C(F)(F)F)cc2)ccc1O` is reported as 67% (rhlR; reporter gene, inhibitor, quorum sensing reporter strain; 10 µM, 1.5 h; reference: DMSO).
For `COc1ccc(Cl)cc1-c1cc(=O)[nH]c(=S)n1CC(N)=O`, the remaining activity was 97.7% (MPO; 0.3125 µM, 0.1 h).
With `COc1ccc(F)cc1C(=O)NCc1ccc(-c2nn([C@@H](C)C(F)(F)F)c(N)c2C(N)=O)cc1` the remaining activity was 79.7 ± 1.3% (MAP4K1; kinase activity, inhibitor, HotSpot radiometric; 100 nM, added: ATP 10 µM).
With `O=C(NC1CCC1)c1ccc2nc(-c3cccc(NS(=O)(=O)NCCN4CCCCC4)c3)cn2c1` the remaining activity was 100% (NUAK2; enzyme activity; 10 µM).
For `O=C(CCN(Cc1ccncc1)Cc1ccc2c(c1)OCO2)NO`, the remaining activity was 116 ± 5% (Astl; enzyme activity, inhibitor, fluorogenic; 0.25 µM).
`O=C(C#Cc1ccc(F)c(F)c1)c1cccc(Cl)c1` has a remaining activity of 72% (rhlR; reporter gene, inhibitor, quorum sensing reporter strain; 10 µM, 1.5 h; reference: DMSO).
With `C=CC(=O)N1CCC[C@@H](n2nc(-c3ccc(Oc4ccccc4)cc3)c3c(N)ncnc32)C1` the remaining activity was 81.5% (FGFR4; 0.1 µM).
The remaining activity of `CN(C)CC#Cc1ccc2[nH]c3c(c2c1)-c1nc(N)ncc1CCC3` is reported as 72% (PAK4 (Homo sapiens, UniProt O96013); kinase activity, inhibitor, radiometric; 1 µM, added: ATP at Km).
With `COc1cc(C#C[C@H](O)CC(C)C)ccc1O` the remaining activity was 72% (rhlR; reporter gene, inhibitor, quorum sensing reporter strain; 10 µM, 1.5 h; reference: DMSO).
With `O=C(CCN(Cc1ccncc1)Cc1ccc(Cl)c(O)c1F)NO` the remaining activity was 31 ± 2% (Astl; enzyme activity, inhibitor, fluorogenic; 5 µM).
The remaining activity of `COc1cc(N2CCN(C)CC2)ccc1Nc1nc(N)n(C(=O)NCc2ccccc2S(=O)(=O)C(C)C)n1` is reported as 0.55% (FGFR4; enzyme activity; 10 µM; reference: control).
For `C=CC(=O)N1CCC[C@@H](n2nc(-c3ccc(Oc4ccccc4)cc3)c3c(N)ncnc32)C1`, the remaining activity was 87.3 ± 0.8% (MAP4K1; kinase activity, inhibitor, HotSpot radiometric; 100 nM, added: ATP 10 µM).
`CC(C)Oc1cc(N2CCN(C)CC2)ccc1Nc1nc(N)n(C(=O)NCc2ccccc2S(=O)(=O)C(C)C)n1` gave a remaining activity of 1.8% (DCLK1; enzyme activity; 10 µM; reference: control).
For `COc1cccc(C(=O)C#Cc2ccc(O)c(OC)c2)c1`, the remaining activity was 64% (rhlR; reporter gene, inhibitor, quorum sensing reporter strain; 10 µM, 1.5 h; reference: DMSO).
`Nc1ncnc2c1ncn2C1OC(CSCCNCc2cccc(-c3ccccc3)c2)C(O)C1O` (centres unmarked) gave a remaining activity of 90.7% (RNA N(6)-adenosine-methyltransferase METTL16 (METTL16, Homo sapiens, UniProt Q86W50); 10 µM).
`COc1cccc(C(O)C#Cc2ccc(O)c(OC)c2)c1` (centres unmarked) gave a remaining activity of 68% (rhlR; reporter gene, inhibitor, quorum sensing reporter strain; 10 µM, 1.5 h; reference: DMSO).
With `Nc1ncc2c(n1)-c1c([nH]c3ccc(-c4ccc(F)cc4)cc13)CCC2` the remaining activity was 132% (TSSK3 (Homo sapiens, UniProt Q96PN8); kinase activity, inhibitor, radiometric; 1 µM, added: ATP at Km).
For `CCCC(=O)C#Cc1ccc(O)c(OC)c1`, the remaining activity was 76% (rhlR; reporter gene, inhibitor, quorum sensing reporter strain; 10 µM, 1.5 h; reference: DMSO).
For `O=C(CCN(Cc1cccnc1)Cc1ccc2c(c1)OCO2)NO`, the remaining activity was 82 ± 5% (Astl; enzyme activity, inhibitor, fluorogenic; 0.25 µM).

A few entries again:
With `NC/C(=C\F)COc1cccc(Cn2c(=S)[nH]c(=O)c3[nH]cnc32)c1` the remaining activity was 7.12% (MPO; LDL lipid peroxidation, inhibitor, cholesteryl ester hydroperoxide; 0.5 µM).
For `COc1cc(-c2cncc3c2CN(C)Cc2cc(N4CCNCC4)ccc2-3)cc(OC)c1OC`, the remaining activity was 138% (PDK2 (Homo sapiens, UniProt Q15119); kinase activity; 1 µM, human enzyme, added: ATP 10 µM; reference: DMSO control).
For `COc1cc(C#CC(=O)C2CCCCC2)ccc1O`, the remaining activity was 74% (rhlR; reporter gene, inhibitor, quorum sensing reporter strain; 10 µM, 1.5 h; reference: DMSO).
